Assay results gathered from unrelated publications.
Every numbered part comes from another study and shows a few of its results, in no order. Positions count from the first letter of the parent shown.

Sample 1 — target: CCNE1, cyclin fold, Cln2 fusion (human); technique: yeast growth competition, sequencing; sample: yeast; setting: strong parent motif; baseline: not given; reading: higher = stronger binding; measurement: normalised enrichment score
Starting sequence: GMNC docking peptide (human); KNAKRNLSSEFAN
KNAKRNLSSEFSN [A12S]: 1.25
KNAKRNLSSRFAN [E10R]: 0.976
KNNKRNLSSEFAN [A3N]: 0.141
KNAKRNLSSNFAN [E10N]: 0.409
KNAKVNLSSEFAN [R5V]: -0.204
KNAKRNLSSEFIN [A12I]: 1.02
KNAKGNLSSEFAN [R5G]: -0.144
KNAYRNLSSEFAN [K4Y]: 0.366
KNAKRNLPSEFAN [S8P]: 0.0402
KNAKRNLSSENAN [F11N]: -0.299
KNAKRNLTSEFAN [S8T]: 1.18
KNAKRNLSMEFAN [S9M]: 1.61
KNAKRYLSSEFAN [N6Y]: -0.604
KNLKRNLSSEFAN [A3L]: 0.119
KNAKRNLFSEFAN [S8F]: 2.51
KNAKRILSSEFAN [N6I]: 0.314
KNAKLNLSSEFAN [R5L]: 0.18
KNAKRNLSLEFAN [S9L]: 1.88
KNAKRNLSSEFFN [A12F]: 0.876
KNHKRNLSSEFAN [A3H]: 0.429
KNAKRNLSSEFQN [A12Q]: 1.1
KNASRNLSSEFAN [K4S]: 0.257

Sample 2 — technique: competition protein-binding microarray; form: double-stranded DNA, one strand shown; sample: in vitro; concentration: 2 µM; with: Cbf1 competitor, 0.05 µM; reading: higher = stronger binding; measurement: fluorescence intensity
Target: Phosphate system positive regulatory protein PHO4, full length, GST-tagged (PHO4, Saccharomyces cerevisiae, UniProt P07270, residues 1-312)
Setting: whole 60-bp probe, lowest competitor level
Construct (chain): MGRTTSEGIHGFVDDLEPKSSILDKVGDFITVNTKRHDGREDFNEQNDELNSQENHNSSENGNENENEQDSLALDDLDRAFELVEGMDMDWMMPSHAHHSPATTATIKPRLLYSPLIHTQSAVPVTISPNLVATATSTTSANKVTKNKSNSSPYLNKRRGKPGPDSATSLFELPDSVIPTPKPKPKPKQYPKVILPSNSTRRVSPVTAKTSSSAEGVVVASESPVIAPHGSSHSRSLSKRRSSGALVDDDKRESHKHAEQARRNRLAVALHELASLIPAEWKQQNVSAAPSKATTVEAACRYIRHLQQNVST
ATCTGGAAACTCCGACGCGTGAGGCCTCGCGTCGCTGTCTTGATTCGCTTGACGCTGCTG: 6030 a.u.
ATCTTTGAGTGTCGGCACGTGTTGGGTTACGAATTCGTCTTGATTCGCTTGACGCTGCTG: 17200 a.u.
AAGATTACACTCGCGAACGTGCGATCGGGATGATACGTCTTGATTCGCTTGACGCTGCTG: 14400 a.u.
CGACTGCGCTGTAACCATGCGTGGACCAGCCAATTTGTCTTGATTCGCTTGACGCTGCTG: 7140 a.u.
TCAAGACCCTTAAAGCACGTTTTTTTCAGGCTCGGCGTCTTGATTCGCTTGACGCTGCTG: 13300 a.u.
AACAGTGATATTCGTCACGTGACTCGGATAAAACTCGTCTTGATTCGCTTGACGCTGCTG: 15300 a.u.
CTATCTTCAAAGGTTGTCGTGCCGATGTTGTAATGGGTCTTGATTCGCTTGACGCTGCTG: 7360 a.u.
AGTCAAGTAAGGCGTCACCTGATTCTACTCCGGCCCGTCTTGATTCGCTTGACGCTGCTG: 3290 a.u.
AGCTTGGGGTGCTTGGGCGTGCGATGCTCGAGGCATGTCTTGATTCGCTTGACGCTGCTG: 7260 a.u.
TTGTCTGTGCATTGGCATGTGCAAGCATTCGATGAAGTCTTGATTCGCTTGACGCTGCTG: 8380 a.u.
CGGAAGCGCTCACTTCACGTGCTTTAAAAGCTTCTCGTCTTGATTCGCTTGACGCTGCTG: 14600 a.u.
CGTCCTAGTGATTGCAGAGTGGGTGCCATGAGGAAGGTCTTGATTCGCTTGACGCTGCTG: 6810 a.u.
ATATGTGTCCGTAACCTCGTAGTTAGTGGCTGATTTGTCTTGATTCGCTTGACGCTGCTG: 3680 a.u.
TGCGCAACAACTTGTCACGAGACTTTATGTCTAGAAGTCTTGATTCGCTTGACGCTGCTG: 7040 a.u.
CGTCCTAGTGATTTTCACGTGATCTCCATGAGGAAGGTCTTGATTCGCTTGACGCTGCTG: 12700 a.u.
CTTCTGTAAATTTGTCACAGAACTTGACGCGCCCCGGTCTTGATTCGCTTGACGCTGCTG: 3210 a.u.
CGCTACCAACTGCGCCATGTGCCCTAAAACGCGTACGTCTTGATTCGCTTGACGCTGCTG: 11300 a.u.
TTGGTATTTGCCATGCAGGTGATAGTGTTATGGGTTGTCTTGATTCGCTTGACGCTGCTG: 7030 a.u.
TGCAAGATCAAGTGCCGCGTGTCCTTATTGTTGTCCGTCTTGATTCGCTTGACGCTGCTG: 11200 a.u.
AAAGCGGTAATTTGTCCCGTGGGTGCAGATATCTATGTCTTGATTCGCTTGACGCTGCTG: 9480 a.u.
CTTTGTCGTCCCTGGCACGGCTGTCTTGTGCTCAGTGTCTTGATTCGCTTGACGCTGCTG: 6630 a.u.
CGCGAACATCGGTCCCACGCTGATAGTCTCCACTATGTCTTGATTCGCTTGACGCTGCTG: 7460 a.u.
TTGACACCATGTTTGCACATGTTACCTGCCGACTACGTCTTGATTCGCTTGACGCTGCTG: 9610 a.u.
AAGAACATTCTTTCTGTCGTGATGGTGTACTGGTGTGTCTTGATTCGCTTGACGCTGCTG: 4620 a.u.

Sample 3 — technique: DHFR PCA, deep sequencing; sample: yeast; with: (+)-ABA 1.4 µM; baseline: wild-type fitted maximum; reading: higher = stronger binding; measurement: relative binding score
Target: ABI1, truncated, D143A, DHFR fusion (Arabidopsis thaliana)
Setting: methotrexate growth selection, single substitutions
Starting sequence: PYL1, truncated, DHFR fusion (Arabidopsis thaliana); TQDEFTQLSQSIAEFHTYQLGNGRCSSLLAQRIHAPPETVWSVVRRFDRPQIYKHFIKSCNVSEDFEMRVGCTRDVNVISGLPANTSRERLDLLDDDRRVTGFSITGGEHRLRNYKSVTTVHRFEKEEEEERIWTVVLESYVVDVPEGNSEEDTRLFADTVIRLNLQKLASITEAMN; partner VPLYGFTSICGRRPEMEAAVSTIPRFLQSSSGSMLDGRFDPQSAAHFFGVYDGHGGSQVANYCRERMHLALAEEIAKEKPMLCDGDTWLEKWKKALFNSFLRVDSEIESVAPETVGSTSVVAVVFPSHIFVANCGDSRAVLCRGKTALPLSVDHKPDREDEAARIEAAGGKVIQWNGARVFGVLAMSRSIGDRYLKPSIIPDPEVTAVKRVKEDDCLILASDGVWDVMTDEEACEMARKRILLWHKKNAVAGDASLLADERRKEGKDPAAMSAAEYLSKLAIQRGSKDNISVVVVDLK
G107Q: 4.1%
V118A: 15%
Y115N: 4.71%
E139L: 7.86%
G102Q: -1.73%
F15V: 2.76%
S104C: 11.3%
A35N: -20.1%
Q2A: 73.9%
A170W: -14.3%
N77R: 73.4%
T1V: 79%
V145F: -26.1%
P83V: -2.48%
N61I: 66.1%
S87N: 9.06%

Sample 4 — target: UBE2I UBC core domain (UniProt P63279); technique: yeast two-hybrid; sample: yeast; setting: mostly zero background; baseline: not given; reading: higher = stronger interaction; measurement: lacZ reporter activity
B1: TRIM13 RING domain (UniProt O60858); chain MELLEEDLTCPICCSLFDDPRVLPCSHNFCKKCLEGILEGSVRNSLWRPAPFKCPTCRKETSATGINS
B2: RC3H1 RING domain (UniProt Q5TC82); chain QAPQWTDFLSCPICTQTFDETIRKPISLGCGHTVCKMCLNKLHRKACPFDQTTINTDIELL
B3: RNF38 RING domain (UniProt Q9H0F5); chain PNNHQSEQTLCVVCMCDFESRQLLRVLPCNHEFHAKCVDKWLKANRTCPICRADASEVHRDS
B4: DTX4 RING domain (UniProt Q9Y2E6); chain QKVRHPPDEDCTICMERLTAPSGYKGPQPTVKPDLVGKLSRCGHVYHIYCLVAMYNNGNKDGSLQCPTCKTIYGVKTGTQ
B5: RNF208 RING domain (UniProt Q9H0X6); chain SSAAAGEPLECPTCGHSYNVTQRRPRVLSCLHSVCEQCLQILYESCPKYKFISCPTCRRETVLFTDYG
B6: TRIM24 RING domain (UniProt O15164); chain EAARLNLLDTCAVCHQNIQSRAPKLLPCLHSFCQRCLPAPQRYLMLPAPMLGSAETPPPVPAPGSPVSGSSPFATQVGVIRCPVCSQECAERHII
B7: TRIM4 RING domain (UniProt Q9C037); chain EAEDIQEELTCPICLDYFQDPVSIECGHNFCRGCLHRNWAPGGGPFPCPECRHPSAPAALRP
B8: RNF111 RING domain (UniProt Q6ZNA4); chain EGTEEDTEEKCTICLSILEEGEDVRRLPCMHLFHQVCVDQWLITNKKCPICRVDIEAQLPSE
B9: TRIM40 RING domain (UniProt Q6P9F5); chain LQKDNQEEGVCPICQESLKEAVSTNCGHLFCRVCLTQHVEKASASGVFCCPLCRKPCSEEVLG
B10: TRAF5 RING domain (UniProt O00463); chain FVERLEERYKCAFCHSVLHNPHQTGCGHRFCQHCILSLRELNTVPICPVDKEVIKSQEVFK
B1 (TRIM13 RING domain): 0
B2 (RC3H1 RING domain): 0
B3 (RNF38 RING domain): 0
MPIRALCTICSDFFDHSRDVAAIHCGHTFHLQCLIQWFETAPSRTCPQCRIQVGKRTIIN (TRAIP RING domain (UniProt Q9BWF2)): 0
VEPSEENSKDCVVCQNGTVNWVLLPCRHTCLCDGCVKYFQQCPMCRQFVQESFALC (CGRRF1 RING domain (UniProt Q99675)): 0
B4 (DTX4 RING domain): 0
B5 (RNF208 RING domain): 0
B6 (TRIM24 RING domain): 0
ASLPTSEEDLCPICYAHPISAVFQPCGHKSCKACINQHLMNNKDCFFCKTTIVSVEDWE (RNF123 RING domain (UniProt Q5XPI4)): 0
GAAPGPEAAECLVCSELALLVLFSPCQHRTVCEECARRMKKCIRCQVVVSKKLRPD (MIB2 RING domain (UniProt Q96AX9)): 0
B7 (TRIM4 RING domain): 0
B8 (RNF111 RING domain): 0
B9 (TRIM40 RING domain): 0
B10 (TRAF5 RING domain): 0
DHGAVGQEMCCPICCSEYVKGEVATELPCHHYFHKPCVSIWLQKSGTCPVCRCMFPPPL (PJA1 RING domain (UniProt Q8NG27)): 0
